Published values gathered from unrelated publications.
Protocols differ between the studies behind these lines. Values joined by “and” are separate records of one study, mostly repeats; a detail may differ. Numbers after ± are the reported error.
DRD5: D(1B) dopamine receptor (DRD5, Homo sapiens, UniProt P21918)
UniProt P21918, sequence (whole entry, looked up): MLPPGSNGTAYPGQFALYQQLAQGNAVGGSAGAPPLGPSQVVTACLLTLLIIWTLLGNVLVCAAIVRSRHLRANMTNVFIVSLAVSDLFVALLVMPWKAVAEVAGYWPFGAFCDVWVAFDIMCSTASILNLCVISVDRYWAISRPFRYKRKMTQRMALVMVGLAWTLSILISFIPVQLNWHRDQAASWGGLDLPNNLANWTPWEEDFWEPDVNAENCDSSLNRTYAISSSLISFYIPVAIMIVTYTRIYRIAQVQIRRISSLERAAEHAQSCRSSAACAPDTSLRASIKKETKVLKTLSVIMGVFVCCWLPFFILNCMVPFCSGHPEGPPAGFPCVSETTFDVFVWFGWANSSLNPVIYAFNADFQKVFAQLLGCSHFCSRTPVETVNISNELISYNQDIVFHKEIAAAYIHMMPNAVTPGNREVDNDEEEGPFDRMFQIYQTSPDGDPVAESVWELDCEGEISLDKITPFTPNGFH
MAL12: Alpha-glucosidase MAL12 (MAL12, Saccharomyces cerevisiae S288c, UniProt P53341)
UniProt P53341, sequence (whole entry, looked up): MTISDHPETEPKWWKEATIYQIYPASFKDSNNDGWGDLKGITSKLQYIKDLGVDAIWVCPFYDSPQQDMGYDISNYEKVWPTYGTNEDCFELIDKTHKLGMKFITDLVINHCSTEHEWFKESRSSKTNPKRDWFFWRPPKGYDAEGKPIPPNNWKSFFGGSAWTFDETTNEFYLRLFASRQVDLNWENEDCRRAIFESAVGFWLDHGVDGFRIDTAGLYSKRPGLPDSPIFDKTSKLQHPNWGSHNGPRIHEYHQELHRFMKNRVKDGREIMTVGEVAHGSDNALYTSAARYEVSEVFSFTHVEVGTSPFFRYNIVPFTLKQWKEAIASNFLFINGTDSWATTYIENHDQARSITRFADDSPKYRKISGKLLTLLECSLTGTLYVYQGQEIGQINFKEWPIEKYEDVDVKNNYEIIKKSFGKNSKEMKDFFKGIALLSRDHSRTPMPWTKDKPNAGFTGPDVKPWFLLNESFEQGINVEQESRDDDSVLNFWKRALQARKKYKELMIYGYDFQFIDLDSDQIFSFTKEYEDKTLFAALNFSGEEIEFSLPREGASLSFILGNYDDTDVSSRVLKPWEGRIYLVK
Urease subunit alpha: Urease subunit alpha (Sporosarcina pasteurii, UniProt P41020)
UniProt P41020, sequence (whole entry, looked up): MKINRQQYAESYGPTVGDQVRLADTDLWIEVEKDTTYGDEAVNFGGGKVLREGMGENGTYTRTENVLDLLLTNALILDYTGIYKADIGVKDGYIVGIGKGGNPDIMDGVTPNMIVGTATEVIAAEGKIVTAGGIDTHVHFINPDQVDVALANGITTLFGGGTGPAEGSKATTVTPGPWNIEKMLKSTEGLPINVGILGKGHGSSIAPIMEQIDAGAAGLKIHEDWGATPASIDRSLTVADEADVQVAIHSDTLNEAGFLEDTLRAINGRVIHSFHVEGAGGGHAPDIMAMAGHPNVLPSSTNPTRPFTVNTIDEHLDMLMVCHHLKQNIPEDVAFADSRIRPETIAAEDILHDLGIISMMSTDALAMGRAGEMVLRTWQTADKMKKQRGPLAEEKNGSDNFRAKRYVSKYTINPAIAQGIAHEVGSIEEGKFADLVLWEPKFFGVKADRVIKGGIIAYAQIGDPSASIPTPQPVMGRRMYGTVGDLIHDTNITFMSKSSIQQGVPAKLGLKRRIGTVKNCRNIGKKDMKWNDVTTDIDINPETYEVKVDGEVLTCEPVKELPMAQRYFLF
MAP2K1: Dual specificity mitogen-activated protein kinase kinase 1 (MAP2K1, Homo sapiens, UniProt Q02750)
UniProt Q02750, sequence (whole entry, looked up): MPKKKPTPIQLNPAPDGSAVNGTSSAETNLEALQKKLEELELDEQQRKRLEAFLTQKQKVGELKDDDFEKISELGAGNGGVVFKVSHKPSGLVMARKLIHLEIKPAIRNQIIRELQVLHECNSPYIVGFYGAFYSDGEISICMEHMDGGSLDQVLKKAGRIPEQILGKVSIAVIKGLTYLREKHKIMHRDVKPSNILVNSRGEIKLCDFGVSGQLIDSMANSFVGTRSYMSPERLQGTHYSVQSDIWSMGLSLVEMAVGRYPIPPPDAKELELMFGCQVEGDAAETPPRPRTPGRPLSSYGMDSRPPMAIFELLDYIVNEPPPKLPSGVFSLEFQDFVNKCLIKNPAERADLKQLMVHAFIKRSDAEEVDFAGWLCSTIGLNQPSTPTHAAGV
HTR1A: 5-hydroxytryptamine receptor 1A (HTR1A, Homo sapiens, UniProt P08908)
UniProt P08908, sequence (whole entry, looked up): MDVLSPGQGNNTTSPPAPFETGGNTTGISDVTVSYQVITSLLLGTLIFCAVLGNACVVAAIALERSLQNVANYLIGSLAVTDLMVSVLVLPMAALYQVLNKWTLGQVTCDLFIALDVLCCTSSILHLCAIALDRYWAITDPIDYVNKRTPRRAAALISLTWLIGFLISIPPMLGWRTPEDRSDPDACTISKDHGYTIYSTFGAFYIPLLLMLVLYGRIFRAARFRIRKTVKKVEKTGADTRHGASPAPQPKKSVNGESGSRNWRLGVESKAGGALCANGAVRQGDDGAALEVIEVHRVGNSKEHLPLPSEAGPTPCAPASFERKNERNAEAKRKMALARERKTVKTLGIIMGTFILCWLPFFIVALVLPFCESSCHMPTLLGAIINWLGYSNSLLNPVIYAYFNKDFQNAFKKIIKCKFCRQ
UniProt P00748, sequence (whole entry, looked up): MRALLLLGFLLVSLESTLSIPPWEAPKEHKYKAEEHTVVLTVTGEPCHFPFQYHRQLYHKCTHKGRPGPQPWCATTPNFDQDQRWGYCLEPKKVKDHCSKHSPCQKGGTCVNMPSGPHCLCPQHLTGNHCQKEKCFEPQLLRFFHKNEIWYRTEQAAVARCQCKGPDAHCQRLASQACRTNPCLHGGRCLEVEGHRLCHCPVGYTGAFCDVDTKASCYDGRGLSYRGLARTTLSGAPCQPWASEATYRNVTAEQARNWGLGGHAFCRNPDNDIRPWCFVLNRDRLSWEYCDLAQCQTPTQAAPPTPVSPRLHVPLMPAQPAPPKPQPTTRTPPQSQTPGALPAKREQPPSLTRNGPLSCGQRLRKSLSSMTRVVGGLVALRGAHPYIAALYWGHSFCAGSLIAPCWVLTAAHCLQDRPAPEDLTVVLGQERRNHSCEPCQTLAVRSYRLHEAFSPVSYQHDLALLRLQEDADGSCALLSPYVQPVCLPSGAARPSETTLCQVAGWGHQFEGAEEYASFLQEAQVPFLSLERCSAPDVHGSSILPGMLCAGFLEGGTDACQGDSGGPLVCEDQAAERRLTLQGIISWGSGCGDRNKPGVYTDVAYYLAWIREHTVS
UniProt Q8N884, sequence (whole entry, looked up): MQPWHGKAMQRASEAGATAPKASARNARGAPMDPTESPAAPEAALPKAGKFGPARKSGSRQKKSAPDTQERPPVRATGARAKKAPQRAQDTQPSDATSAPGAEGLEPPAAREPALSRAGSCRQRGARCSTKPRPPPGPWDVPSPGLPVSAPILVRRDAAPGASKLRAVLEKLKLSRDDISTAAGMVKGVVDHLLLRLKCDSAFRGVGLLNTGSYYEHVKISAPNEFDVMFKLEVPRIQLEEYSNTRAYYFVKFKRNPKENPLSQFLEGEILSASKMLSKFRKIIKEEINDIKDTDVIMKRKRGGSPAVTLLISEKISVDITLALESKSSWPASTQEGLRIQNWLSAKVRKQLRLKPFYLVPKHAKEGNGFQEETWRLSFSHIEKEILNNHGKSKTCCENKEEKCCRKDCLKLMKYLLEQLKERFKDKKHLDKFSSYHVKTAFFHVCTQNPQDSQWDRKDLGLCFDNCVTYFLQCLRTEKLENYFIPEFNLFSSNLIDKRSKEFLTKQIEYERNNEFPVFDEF
UniProt O14920, sequence (whole entry, looked up): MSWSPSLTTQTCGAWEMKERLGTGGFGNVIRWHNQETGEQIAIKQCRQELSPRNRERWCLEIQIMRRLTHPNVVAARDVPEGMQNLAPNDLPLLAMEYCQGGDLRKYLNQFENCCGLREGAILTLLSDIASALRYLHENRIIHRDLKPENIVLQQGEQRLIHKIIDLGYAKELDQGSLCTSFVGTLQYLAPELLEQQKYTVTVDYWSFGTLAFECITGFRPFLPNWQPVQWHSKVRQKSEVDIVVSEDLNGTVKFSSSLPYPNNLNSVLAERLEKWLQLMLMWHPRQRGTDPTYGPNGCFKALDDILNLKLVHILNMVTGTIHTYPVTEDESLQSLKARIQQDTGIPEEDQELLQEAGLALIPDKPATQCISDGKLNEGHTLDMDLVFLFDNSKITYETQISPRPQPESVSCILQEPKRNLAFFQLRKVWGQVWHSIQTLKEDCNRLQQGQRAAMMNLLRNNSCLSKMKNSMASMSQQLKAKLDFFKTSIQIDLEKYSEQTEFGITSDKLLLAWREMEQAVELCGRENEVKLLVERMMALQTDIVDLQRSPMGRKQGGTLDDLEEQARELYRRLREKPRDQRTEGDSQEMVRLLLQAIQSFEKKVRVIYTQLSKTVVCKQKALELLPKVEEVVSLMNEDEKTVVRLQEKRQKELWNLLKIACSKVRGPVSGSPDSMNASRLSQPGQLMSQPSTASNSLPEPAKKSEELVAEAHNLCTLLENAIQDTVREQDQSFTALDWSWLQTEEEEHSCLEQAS
UniProt Q7RTT9, sequence (whole entry, looked up): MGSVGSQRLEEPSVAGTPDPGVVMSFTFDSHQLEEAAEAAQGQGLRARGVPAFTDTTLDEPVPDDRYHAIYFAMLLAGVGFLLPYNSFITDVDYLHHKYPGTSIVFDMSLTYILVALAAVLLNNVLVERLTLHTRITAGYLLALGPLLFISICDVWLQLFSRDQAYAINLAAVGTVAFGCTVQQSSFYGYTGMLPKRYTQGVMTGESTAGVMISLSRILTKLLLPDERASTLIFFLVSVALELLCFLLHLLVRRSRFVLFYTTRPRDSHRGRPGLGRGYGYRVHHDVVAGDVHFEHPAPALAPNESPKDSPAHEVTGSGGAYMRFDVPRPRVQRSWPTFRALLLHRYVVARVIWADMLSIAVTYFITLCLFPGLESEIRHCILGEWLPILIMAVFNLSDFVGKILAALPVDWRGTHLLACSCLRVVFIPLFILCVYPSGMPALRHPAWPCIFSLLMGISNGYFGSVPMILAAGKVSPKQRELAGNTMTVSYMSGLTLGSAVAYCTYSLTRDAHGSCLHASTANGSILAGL

SMILES | tested on | assay | test system | conditions | scale | measurement | result
CC(C)c1noc2ncc(C(=O)c3ccccc3O)cc12 | Asic3 (Rattus norvegicus, UniProt O35240) | ion current, whole-cell patch-clamp | – | 10 µM, rASIC3 | – | inhibition | 3.6%
O=C(CN1CCO[C@@H](COc2ccccn2)C1)N1CCc2ccccc21 | DRD5 | radioligand binding | – | concentration not given, together with: [3H]SCH23390 | – | inhibition | 38.5%
CCN(CC)C(=S)SSC(=S)N(CC)CC | PTPN22 (Homo sapiens, UniProt Q9Y2R2) | inhibitor, immunoblot | – | up to 75 µM, 2 min | – | inhibition | inhibited
Clc1cccc(OC[C@@H]2CN(CCN3CCc4ccccc43)CCO2)c1 | HTR4 (Homo sapiens, UniProt Q13639) | radioligand binding | – | concentration not given | – | inhibition | 11.7%
C[C@H]1c2nc3ccccc3c(-c3ccccc3)c2[C@H]2C[C@@H]1N(Cc1ccccc1)C[C@]2(C)O | Mu-type opioid receptor (Cavia porcellus, UniProt A0ACM8Q262) | binding, radioligand binding | guinea pig brain membranes | 1 µM, together with: [3H]DAMGO | – | inhibition | 0%
Cc1cc(-c2ccnc3[nH]cc(F)c23)cc(F)c1[C@@]1(O)[C@H](C)CN(C(=O)CN)C[C@@H]1C | AKT1 and AKT3 | ATP probe binding, KiNativ, refers to: Lys1 site | HEK293T cell lysate | 0.1 µM | – | inhibition | -10.7%
O=C(CN1CCO[C@@H](COc2cccnc2)C1)N1CCc2ccccc21 | DRD5 | radioligand binding | – | concentration not given, together with: [3H]SCH23390 | – | inhibition | -6.4%
Cn1cc(-c2cnc3ccc(NC(=O)Nc4ccc(F)c(Br)c4)cc3n2)cn1 | IKBKB (Homo sapiens, UniProt O14920) | kinase binding, KiNativ profiling, refers to: Lys2 peptide | PANC-1 lysate | 5 µM | – | inhibition | 4.8%
Oc1ccccc1Cn1cccn1 | MAL12 | inhibitor | – | 25 µM | – | inhibition | < 0%
NC/C(=C\F)COc1cccc(Cn2c(=S)[nH]c(=O)c3[nH]cnc32)c1 | rabbit P2X receptor | radioligand binding | – | 10 µM | – | inhibition | < 50%
CCCCCOc1ccc(/C=C\c2cccc(O)c2C(=O)O)cc1 | OCI-Ly1 | – | – | 0.1 µM, 120 h | – | viability | 193%
C[C@@H]1CCO[C@H]2Cn3cc(C(=O)NCc4ccc(F)cc4F)c(=O)c(O)c3C(=O)N12 | SLC29A4 (Homo sapiens, UniProt Q7RTT9) | transport | MDCK-II, transfected | 100 µM, together with: MPP+ 10 µM | – | inhibition | -2.91%
Cc1cc(-c2ccnc3[nH]cc(F)c23)cc(F)c1[C@@]1(O)[C@H](C)CN(C2CCS(=O)(=O)CC2)C[C@@H]1C | AKT2 and AKT3 | ATP probe binding, KiNativ, refers to: ATP loop | HEK293T cell lysate | 1 µM | – | inhibition | 10.8%
Cc1nn(-c2nc3c(F)cc(F)cc3s2)c(O)c1C(c1ccccc1C(=O)O)c1c(C)nn(-c2nc3c(F)cc(F)cc3s2)c1O | CGAS (Homo sapiens, UniProt Q8N884) | enzyme activity, inhibitor, pyrophosphatase-coupled | – | 100 µM, 1.5 h, together with: HT-DNA | – | inhibition | 93.7%
CN(C(=O)n1cnc(-c2ccc[n+]([O-])c2)c1)C1CCCCC1 | TRHR (Homo sapiens, UniProt P34981) | – | – | 10 µM | – | inhibition | -7.98%
Cc1ncc([N+](=O)[O-])n1C(=NO)c1ccccc1C(F)(F)F | CHKtide kinase | – | – | 10 µM | – | inhibition | 15.2%
CN(C(=O)C(C)(C)c1cc(C(F)(F)F)cc(C(F)(F)F)c1)c1cnc(N2C[C@H]3COCCN3C[C@H]2CO)cc1-c1ccc(F)cc1[14CH3] | – | – | human liver microsomes | substrate depletion | – | Vmax | 307 pmol/min/mg
Fc1ccc(/C=C/C=N/NC(=S)NCc2ccccc2)cc1 | Urease subunit alpha | enzyme activity, indophenol method | – | 500 µM | – | inhibition | 85.3%
COc1cc(C(=O)NS(=O)(=O)c2ccccc2C)ccc1Cc1cn(C)c2ccc(NC(=O)OC3CCCC3)cc12 | Volume-regulated anion channel subunit LRRC8C, part LRRC8A IL1 chimera (LRRC8C, Homo sapiens, UniProt Q8TDW0, E6A) | ion current, inhibitor, whole-cell patch clamp | HCT LRRC8-/- cells | 3 µM, +100 mV | – | inhibition | 92.7% and 83.4% and 90.7% and 85.4% and 98% and 88.3%
O=C(CN1CCO[C@H](COc2ccccc2)C1)N1CCc2ccccc21 | DRD5 | radioligand binding | – | concentration not given, together with: [3H]SCH23390 | – | inhibition | 3.6%

SMILES | tested on | assay | test system | conditions | scale | measurement | result
Cc1ccc(CNC(=O)[C@H](CCc2ccccc2)NC(=O)[C@H](CCc2ccccc2)NC(=O)[C@H](CCc2ccccc2)NC(=O)c2cnc(C)cn2)cc1 | F12 (Homo sapiens, UniProt P00748) | enzyme activity, inhibitor | – | 100 µM | – | inhibition | 45%
COc1ccc2c(c1)CN(CCCN1CCN(c3ccccc3OC)CC1)C2=O | DRD5 | radioligand binding | – | concentration not given, together with: [3H]SCH23390 | – | inhibition | 32.5%
Cc1cc2c(cc1N1C(=O)c3cccc4c(CCCO)ccc(c34)C1=O)n(C)c(=O)n2C (racemic) | Bromodomain testis-specific protein, BD2 (BRDT, Homo sapiens, UniProt Q58F21) | binding, BROMOscan binding | – | 100 nM | – | inhibition | 79%
Nc1ncnc2c1ncn2[C@@H]1O[C@H](COP(=O)(O)CP(=O)(O)OP(=O)(O)O)[C@@H](O)[C@H]1O | P2X purinoceptor 1 (P2RX1, Homo sapiens, UniProt P51575, L218T) | calcium influx | – | 3.16 nM | reference: ionomycin response | calcium influx | 0%
CC[C@@H]1[C@H](F)C(=O)N[C@@H]1COc1nccc2cc(C(N)=O)c(OC)cc12 | MAP2K1 | ATP-site probe binding, ActivX profiling | THP-1 cell lysate | 0.01 mM, Lys2 site | – | inhibition | -1.6%
COc1ccc(-c2coc3c(Cn4nc(C)cc4C)c(O)ccc3c2=O)cc1 | MAL12 | inhibitor | – | 25 µM | – | inhibition | 67.2%
O=C(NO)c1ccc(CN2CCCCc3ccccc32)c(F)c1 | ADRA2A (Homo sapiens, UniProt P08913) | radioligand binding, PDSP radioligand binding | – | 10 µM | – | inhibition | 27.1%
CCc1oc2ccccc2c1C(=O)c1cc(Br)c(O)c(Br)c1 | SLC22A12 (Homo sapiens, UniProt Q96S37, M214A) | uric acid uptake | HEK293T transfected with SLC22A12 M214A | 0.5 µM, 10 min, 37 °C, mean, together with: [14C]urate 200 µM | – | inhibition | 42%
O=C(Nc1cccc2c(=O)cc(-c3nnn[nH]3)oc12)c1ccc(OCCCCc2ccccc2)cc1 | Volume-regulated anion channel subunit LRRC8C, part LRRC8A IL1 chimera (LRRC8C, Homo sapiens, UniProt Q8TDW0) | ion current, inhibitor, whole-cell patch clamp | HCT LRRC8-/- cells, transfected | 0.3 µM, low ionic strength swelling, +100 mV | – | inhibition | 25% and 11.6% and 3.8% and -1.06%
COc1ccc(F)cc1C(=O)NCc1ccc(-c2nn([C@@H](C)C(F)(F)F)c(N)c2C(N)=O)cc1 | MAP2K1 | target engagement, competitive chemoproteomics | human PBMCs | 0.01 µM | – | inhibition | -5.7%
COc1ccc2c(c1)C(=O)N(CCCN1CCN(c3ccccc3OC)CC1)C2 | DRD5 | radioligand binding | – | concentration not given, together with: [3H]SCH23390 | – | inhibition | 31.8%
COc1cc(-c2cc(C(C)=O)n3ccccc23)cc(OC)c1Cn1ccnc1 | Bromodomain testis-specific protein, BD1 (BRDT, Homo sapiens, UniProt Q58F21) | – | – | 1 µM | – | inhibition | -14.1%
Cc1ccc(NC(=S)N/N=C/C=C/c2ccc(F)cc2)c(C)c1 | Urease subunit alpha | enzyme activity, indophenol method | – | 500 µM | – | inhibition | 88.7%
Cc1ncccc1OC[C@@H]1CN(CCN2CCc3ccccc32)CCO1 | HTR1A | radioligand binding | – | concentration not given, together with: [3H]8-OH-DPAT | – | inhibition | 22.3%
CCOC(=O)CCNc1cc(N2CCc3ccccc3CC2)nc(-c2cccnc2)n1 | OCI-Ly1 | – | – | 0.5 µM, 120 h | – | viability | 99%
C=CCNC(=O)C#Cc1ccc(-c2cccs2)s1 | Serotonin N-acetyltransferase (Ovis aries, UniProt Q29495) | enzyme activity, inhibitor | – | 40 µM, up to tested concentration, together with: acetyl-CoA | – | inhibition | no inhibition
CC(C)Cc1ccc(-c2nn(-c3ccc(S(C)(=O)=O)cc3)cc2/C=N/N=c2\[nH]c(-c3ccc([N+](=O)[O-])cc3)cs2)cc1 | EGFR (Homo sapiens, UniProt P00533, L858R) | kinase activity, inhibitor | – | 1 µM | – | inhibition | 73%
c1cncc(OC[C@@H]2CN(CCN3CCc4ccccc43)CCO2)c1 | HTR1A | radioligand binding | – | concentration not given, together with: [3H]8-OH-DPAT | – | inhibition | 55.3%
C[C@H](CCC(C)(C)O)[C@H]1CC[C@H]2[C@@H]3CC=C4C[C@@](C)(O)CC[C@]4(C)[C@H]3CC[C@]12C | Glutamate NMDA receptor; GRIN1/GRIN2B (GRIN1/GRIN2B, Homo sapiens, UniProt Q05586+Q13224) | proton inhibition of current, two-electrode voltage clamp | Xenopus oocytes | concentration not given, current ratio pH 6.8 over pH 7.6, together with: positive allosteric modulator 10 µM | – | inhibition | 41 ± 4.1%
